Measured values collected from several papers.
± gives the spread as reported.

Compound	cell line	test	conditions	how to read	endpoint	value
C(=C/c1ccccc1)/c1ccccc1	U-937	apoptosis, measured: caspase-3 activity	24 h, lowest dose with significant induction	baseline: vehicle	lowest effective concentration	2 µM
CCCCCCCCCCCCCCCOC(=O)/C=C/c1cc(O)c(O)c(OC)c1	MDA-MB-231	AO-PI flow cytometry	IC50, 24 h		late apoptotic cells	24.7%
COc1ccc([C@@H]2CC(=O)c3c(O)cc(O[C@@H]4O[C@H](CO[C@@H]5O[C@@H](C)[C@H](O)[C@@H](O)[C@H]5O)[C@@H](O)[C@H](O)[C@H]4O)cc3O2)cc1O	A549	cell migration, scratch	100 µg/mL, 0 h		gap closure	0%
CC(C)[C@@H]1NC(=O)[C@@H](Cc2ccccc2)NC(=O)[C@H](CC(=O)O)NC(=O)CNC(=O)[C@H](CCCNC(=N)N)NC1=O	B16-F1		0.1 µM, 3 h	baseline: untreated	clonogenic survival decrease	7%
COc1cc(CNC(=O)C[C@H](C)CCC=C(C)C)ccc1OCc1cn(-c2ccc([N+](=O)[O-])cc2)nn1	COLO 205	SRB	10 µM, 48 h		growth percent	122%
O=C(N1CCCC1)n1cc(-c2ccc(-c3ccccc3)cc2)nn1	mouse T-cells	N-terminal labeled proteins, N-terminal enrichment proteomics, measured: NIBAN	1 nM, 6 h	baseline: DMSO	SILAC ratio	1.3 ± 0.36
FC(F)(F)c1ccnc(-c2cc(C(F)(F)F)ccn2)c1.FC(F)(F)c1ccnc(-c2cc(C(F)(F)F)ccn2)c1.[Cl-].[Cl-].[Ru+2].c1csc(-c2ccc(-c3ccc(-c4ccc(-c5nc6c7cccnc7c7ncccc7c6[nH]5)s4)s3)s2)c1	SK-MEL-28	cell viability	normoxia, with: red light 633 nm, 100 J/cm2	baseline: dark EC50 over light EC50	phototherapeutic index	37
COc1cc(C(=O)c2[nH]c(N)nc2-c2cccs2)cc(OC)c1OC	HeLa or A549 cells	γ-tubulin immunofluorescence	100 nM		multipolar mitotic spindles	24%
CC(=O)N[C@H](C(=O)N[C@H](C(=O)N[C@@H](CCCNC(=N)N)C(=O)N1Cc2ccccc2C[C@H]1C(=O)N[C@@H](Cc1ccccc1)C(N)=O)C1CCCCC1)C(C)C	MBP-specific BC-3 T cells	Bio-Plex multiplex, measured: IFN-g	200 µg/mL, 24 h, with: MBP87-99 antigen		cytokine level	46.2 ± 17.8 pg/mL
C[C@H](NC(=O)[C@H](Cc1c[nH]c2ccccc12)NC(=O)[C@@H](N)CCCNC(=N)N)C(=O)N[C@@H](Cc1c[nH]c2ccccc12)C(=O)N[C@@H](CCCNC(=N)N)C(=O)N[C@@H](Cc1c[nH]c2ccccc12)C(=O)N[C@@H](CCC(N)=O)C(=O)N[C@@H](Cc1c[nH]c2ccccc12)C(=O)N[C@@H](CCCNC(=N)N)C(N)=O	young human fibroblasts primary	MTT	concentration not given, 48 h, 37 °C, 5% FBS	baseline: untreated cells	viability	86 ± 4%
COc1ccc2c(c1)/C(=N\Nc1nnc3n1N=C(c1ccccc1)CS3)C(=O)N2	OVCAR-4	cell growth or viability, SRB	10 µM		inhibition	21%
C=C[C@H](OC(C)=O)c1ccc(OC(C)=O)cc1	MDA-MB-231	Western blot	IC50, 24 h	baseline: untreated	Bcl-2 protein decrease	40 to 50%
COc1cc(CNC(=O)C[C@H](C)CCC=C(C)C)ccc1OCc1cn(-c2ccc(Cl)c(Cl)c2)nn1	NCI-H522	SRB	10 µM, 48 h		growth percent	61.5%
COc1cc(/C=C/c2cc(C)n[nH]2)ccc1O	CHO	DCF-DA	10 µM, 2 h pretreatment, read 30 min post-irradiation, with: 2 Gy radiation	baseline: irradiated control	reduction in ROS level	30%
CO[C@H]1O[C@H](COC(c2ccccc2)(c2ccccc2)c2ccccc2)[C@@H](OS(=O)(=O)c2ccccc2)[C@H](OS(=O)(=O)c2ccccc2)[C@H]1OS(=O)(=O)c1ccccc1	Ehrlich	cell growth or viability, MTT	15.625 µg/mL, 24 h		inhibition	1.21%
O=Cc1ccc(C(F)F)o1	human sickle cell (SS) red blood cells		2 mM	baseline: 5-HMF	antisickling activity fold improvement	~2.3 fold
COc1cc(CNC(=O)C[C@H](C)CCC=C(C)C)ccc1O	SK-MEL-28 melanoma cells	SRB	10 µM, 48 h		growth percent	106%
CC1(C)C(=CC=C2C[N+](C)(C)CC(C=CC3=[N+](CCCCCC(=O)O)c4ccccc4C3(C)C)=C2c2ccccc2)N(CCCCCC(=O)O)c2ccccc21	MDA-MB-231		with: FBS 10%	baseline: serum-free medium	cellular uptake	no effect
O=Cc1c(O)ccc2ccccc12	HUVEC	RNA sequencing, measured: DHFR	75 µM, 24 h	baseline: DMSO	log2 fold change	-3.1
COC(=O)C1NC(c2ccc[n+](C)c2)C23c4c5c6c7c8c9c(c%10c%11c2c2c4c4c%12c5c5c6c6c8c8c%13c9c9c%10c%10c%11c%11c2c2c4c4c%12c%12c5c5c6c8c6c8c%13c9c9c%10c%10c%11c2c2c4c4c%12c5c6c5c8c9c%10c2c45)C713 (stereo not drawn)	BC-3	cell growth or viability	24 h		CC50	9.7 µM
COc1cc(O)c(Cl)cc1/C=C/C(=O)c1ccc(C(F)(F)F)cc1	mouse bone marrow macrophages	flow cytometry	10 and 20 µM, with: LPS		CD86 expression	decreased
O=C(Cn1c(=O)c(Cc2ccccc2)nc2ccccc21)NN1C(=O)c2ccccc2C1=O	HCT-116	qRT-PCR, measured: HIF-1α	concentration not given, 72 h	baseline: untreated	mRNA level	0.3 ± 0.011 fold
Cc1ccc(C(C)C)cc1.O=C(N=P(c1ccccc1)(c1ccccc1)c1ccccc1)c1ccccn1.[Cl-].[Cl][Ru+]	MDA-MB-231 and HCC1806	western blot, measured: M-CSF	IC20, 24 h		protein level	decreased
CCn1nc2c(c1Nc1nc(-c3ccc(-n4cnc(C)c4)c(OC)n3)cs1)CCCC2	SH-SY5Y-APP			baseline: Aβ38 EC50 over Aβ42 IC50	selectivity ratio	10 fold
COc1cc(CNC(=O)C[C@H](C)CCC=C(C)C)ccc1OCc1cn(-c2ccc(F)cc2)nn1	COLO 205	SRB	10 µM, 48 h		growth percent	97.2%
CCNc1ccc(-c2nc3cc(OCCF)ccc3n3cccc23)cc1	HEK293 DR-GFP reporter	homologous recombination	48 h		concentration for near-complete inhibition	30 to 40 µM

Compound	cell line	test	conditions	how to read	endpoint	value
COc1cc2c(cc1C)NC(=O)C2=Cc1c(Cl)[nH]c2c1ccc1ccccc12	prostate cancer subpanel of NCI-60		48 h		TGI	3.02 µM
COc1cc(CNC(=O)C[C@H](C)CCC=C(C)C)ccc1OCc1cn(-c2cccc(C(F)(F)F)c2)nn1	UO-31	SRB	10 µM, 48 h		growth percent	75.7%
Cc1c(C)c(C)[c-](C)c1C.[C-]#[O+].[C-]#[O+].[C-]#[O+].[Cl-].[Cl-].[Cl-].[Ir+3].[Re+].c1cnc(-c2ncccn2)nc1	MDA-MB-468	annexin V/PI flow cytometry	25 µM, 48 h		late apoptotic cells	4.19%
N=C(N)NCCC[C@H](NC(=O)[C@H](Cc1c[nH]c2ccccc12)NC(=O)[C@H](CCC(N)=O)NC(=O)[C@H](Cc1c[nH]c2ccccc12)NC(=O)[C@H](CCCNC(=N)N)NC(=O)[C@H](Cc1c[nH]c2ccccc12)NC(=O)[C@H](CCC(N)=O)NC(=O)[C@H](Cc1c[nH]c2ccccc12)NC(=O)[C@@H](N)CCCNC(=N)N)C(N)=O	young human fibroblasts primary	MTT	concentration not given, 24 h, 37 °C, 5% FBS	baseline: untreated cells	viability	100 ± 2%
CC(=O)OC[C@H]1O[C@@H](Sc2sc(C(=O)c3ccc(C)cc3)c(N)c2-c2nc3ccccc3s2)[C@H](OC(C)=O)[C@@H](OC(C)=O)[C@H]1OC(C)=O	NCI-H522	SRB	10 µM, 48 h	baseline: untreated	growth	82.6%
Cn1cc(-c2cc(N3CCCCS3(=O)=O)ccc2N[C@H]2CC[C@H](C)CC2)c2cc[nH]c2c1=O (stereo in doubt)	TMD8	cell growth or viability, CCK-8	72 h		GI50	0.0022 µM
COc1ccc([C@@H]2CC(=O)c3c(O)cc(O[C@@H]4O[C@H](CO[C@@H]5O[C@@H](C)[C@H](O)[C@@H](O)[C@H]5O)[C@@H](O[C@H]5O[C@H](CO)[C@@H](O)[C@H](O)[C@H]5O)[C@H](O)[C@H]4O)cc3O2)cc1O	A549	cell growth or viability, MTS	100 µg/mL, 24 h		viability	47.5%
CC(C)Cc1ccc(C(C)C(=O)[O][Pt]([NH2])([NH2])([Cl])([Cl])[O]C(=O)CCCc2ccccc2)cc1 (stereo not drawn)	six human cancer lines	cytotoxicity, MTT		baseline: cisplatin	IC50 fold lower	~10 fold
N#Cc1cccc(-c2ccc(=O)n(Cc3cccc(-c4ncc(OCC5CCN(CC(=O)NCCOCCNc6ccc7c(c6)C(=O)N(C6CCC(=O)NC6=O)C7=O)CC5)cn4)c3)n2)c1 (stereo not drawn)	EBC-1, Hs746T	Western blot, measured: phospho-MET	10 and 100 nM, sustained 24 h		time to complete inhibition	6 h
COc1cc(CNC(=O)C[C@H](C)CCC=C(C)C)ccc1OCc1cn(-c2cccc(Cl)c2)nn1	NCI-H522	SRB	10 µM, 48 h		growth percent	67.3%
C=CCc1cc(OC)c(OC(C)=O)c(OC)c1	MDA-MB-231	cell growth or viability, MTT			IC20	50 µM
CCC(=C(c1ccc(Cl)cc1)c1ccc(OCCCN(C)C)cc1)c1ccc(OC)cc1	UO-31	cell growth or viability			GI50	5.3 µM
COc1ncccc1CN(C(=O)OC(c1ccc([N+](=O)[O-])cc1)C(F)(F)F)[C@H]1C[C@@H]1c1ccccc1 (mixture of isomers)	THP-1 cells	colony forming unit		baseline: EC50 wild type over NTR-expressing	selectivity ratio	1 ± 1
Cc1cnc2c(ccc3c(C)c(C)cnc32)c1C.O=C([O-])Cc1ccccc1Nc1c(Cl)cccc1Cl.O=C([O-])Cc1ccccc1Nc1c(Cl)cccc1Cl.[Mn+2]	HMLER-shEcad		0.25 µM, 6 h	baseline: untreated	peak intracellular ROS level	3.4 fold
COc1cc(CNC(=O)C[C@H](C)CCC=C(C)C)ccc1OCc1cn(-c2ccccc2[N+](=O)[O-])nn1	COLO 205	SRB	10 µM, 48 h		growth percent	78%
C=C(CC)C(=O)c1ccc(OCC(=O)NCCCCNC(=O)COc2ccc(C(=O)C(=C)CC)c(Cl)c2Cl)c(Cl)c1Cl	SK-OV-3/DDP	cell growth, CCK-8	72 h		IC10	4.8 µM
C=CC(OC(C)=O)c1cc(OC)c(OC(C)=O)c(OC)c1 (stereo not drawn)	MDA-MB-231	Western blot	IC50, 24 h	baseline: untreated	Bax protein level	2.9 fold
CS(C)=O.CS(C)=O.[Cl][Cu][Cl].c1ccc(-c2nnc(-c3ccc4c(c3)OCO4)[nH]2)nc1	T24	PI flow cytometry	5.3 µM, 24 h		cells in G2/M phase	34.8%
CC/C=C\C/C=C\C/C=C\C/C=C\C/C=C\C/C=C\CCC(=O)Nc1ccn(C2OC(CO)C(O)C2(F)F)c(=O)n1 (stereo not drawn)	NCI-H522	NCI60 screen			TGI	14.2 µM
Cc1cc([C@H](C(=O)N2C[C@H](O)C[C@H]2C(=O)N[C@@H](CC(=O)N2CCC(N3CCC(C#Cc4ccc(C(=O)N[C@H]5C(C)(C)[C@H](Oc6ccc(C#N)c(Cl)c6)C5(C)C)cc4)CC3)CC2)c2ccc(-c3scnc3C)cc2)C(C)C)on1	HCC1428	flow cytometry	72 h		G2/M arrest concentration	0.5 µM
C=C(C)[C@@H]1CC[C@]2(C(=O)OCO/N=[N+](\[O-])N3CCCC3)CC[C@]3(C)[C@H](CC[C@@H]4[C@@]5(C)CC[C@H](OC(C)=O)C(C)(C)[C@@H]5CC[C@]43C)[C@@H]12	B16-F10	Annexin V/PI flow cytometry	0.25 µM, 36 h		Annexin V-positive cells	8.27%
Cc1cc(O)cc(O)c1C(=O)c1c2c3c(c(O)cc(C)c3oc1=O)C(=O)c1c(O)cc(O)cc1-2	Bel-7402	western blot	concentration not given, 12 h		γ-H2AX level	increased
COc1cc(CNC(=O)C[C@H](C)CCC=C(C)C)ccc1OCc1cn(-c2ccc(C#N)cc2)nn1	SK-MEL-28 melanoma cells	SRB	10 µM, 48 h		growth percent	85.4%
Cc1ccc(-n2nnnc2[S+]([O-])Cc2c(F)cccc2Cl)cc1Cl (stereo not drawn)	Ramos	LFQ mass spectrometry	10 µM, 8 h		overlap with Myc targets	13.3%
CC(C)C[C@H](NC(=O)[C@H](CC(C)C)NC(=O)[C@@H](Cc1c[nH]c2ccccc12)NC(=O)[C@H](Cc1ccccc1)NC(=O)[C@@H](Cc1c[nH]c2ccccc12)NC(=O)[C@H](CCC(N)=O)NC(=O)[C@H](CCC(N)=O)NC(=O)[C@@H]1CCCN1C(=O)[C@H](CCCCN)NC(=O)[C@@H]1CCCN1C(=O)[C@H](N)CCCNC(=N)N)C(N)=O	HEK293 expressing NK1R	cytosolic ERK, antagonist, FRET biosensor	concentration not given, 30 min, with: substance P		ERK activity	inhibited
